# Assay results gathered from unrelated publications.
# Each line is one published result; not all experiments were run side by side. “And” joins repeats or separate records; there may be more than shown. Numbers after ± are the reported error.
# BCL2L1: Bcl-2-like protein 1 (BCL2L1, Homo sapiens, UniProt Q07817)
# Gja8: Gap junction alpha-8 protein (Gja8, Mus musculus, UniProt P28236)
# UniProt P28236, sequence (whole entry, looked up): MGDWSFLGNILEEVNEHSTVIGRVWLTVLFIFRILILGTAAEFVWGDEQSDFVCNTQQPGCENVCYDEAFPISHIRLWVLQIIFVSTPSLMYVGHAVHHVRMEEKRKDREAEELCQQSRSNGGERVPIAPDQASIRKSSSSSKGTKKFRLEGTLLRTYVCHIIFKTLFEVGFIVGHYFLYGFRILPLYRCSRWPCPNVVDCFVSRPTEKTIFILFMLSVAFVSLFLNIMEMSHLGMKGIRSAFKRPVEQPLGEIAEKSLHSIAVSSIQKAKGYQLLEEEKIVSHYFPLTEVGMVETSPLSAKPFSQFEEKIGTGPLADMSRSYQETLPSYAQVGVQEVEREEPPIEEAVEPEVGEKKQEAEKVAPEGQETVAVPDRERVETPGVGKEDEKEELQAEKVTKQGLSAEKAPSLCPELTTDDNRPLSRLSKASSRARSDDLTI
# PDE5A: cGMP-specific 3',5'-cyclic phosphodiesterase (PDE5A, Homo sapiens, UniProt O76074)
# FGFR1: Fibroblast growth factor receptor 1 (FGFR1, Homo sapiens, UniProt P11362)
# UniProt P11362, sequence (whole entry, looked up): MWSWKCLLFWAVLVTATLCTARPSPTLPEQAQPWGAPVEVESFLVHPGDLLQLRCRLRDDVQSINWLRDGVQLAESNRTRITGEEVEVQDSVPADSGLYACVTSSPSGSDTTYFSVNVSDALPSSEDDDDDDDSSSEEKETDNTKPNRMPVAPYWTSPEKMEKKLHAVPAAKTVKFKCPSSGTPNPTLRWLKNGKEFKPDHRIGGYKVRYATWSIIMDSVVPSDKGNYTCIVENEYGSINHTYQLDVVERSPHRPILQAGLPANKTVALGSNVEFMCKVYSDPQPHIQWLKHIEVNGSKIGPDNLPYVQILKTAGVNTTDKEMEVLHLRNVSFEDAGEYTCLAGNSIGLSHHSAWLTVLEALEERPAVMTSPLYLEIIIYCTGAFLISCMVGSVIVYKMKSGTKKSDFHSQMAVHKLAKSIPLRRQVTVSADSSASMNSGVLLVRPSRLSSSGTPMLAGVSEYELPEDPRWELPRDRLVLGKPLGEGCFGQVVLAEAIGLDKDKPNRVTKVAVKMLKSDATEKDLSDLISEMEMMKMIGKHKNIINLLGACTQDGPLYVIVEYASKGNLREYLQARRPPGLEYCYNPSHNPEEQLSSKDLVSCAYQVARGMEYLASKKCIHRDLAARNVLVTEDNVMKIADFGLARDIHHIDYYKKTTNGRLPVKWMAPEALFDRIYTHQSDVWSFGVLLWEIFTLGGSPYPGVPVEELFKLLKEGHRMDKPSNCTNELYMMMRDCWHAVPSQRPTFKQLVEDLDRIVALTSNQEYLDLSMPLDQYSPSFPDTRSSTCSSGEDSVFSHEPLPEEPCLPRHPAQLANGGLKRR
# UniProt O15393, sequence (whole entry, looked up): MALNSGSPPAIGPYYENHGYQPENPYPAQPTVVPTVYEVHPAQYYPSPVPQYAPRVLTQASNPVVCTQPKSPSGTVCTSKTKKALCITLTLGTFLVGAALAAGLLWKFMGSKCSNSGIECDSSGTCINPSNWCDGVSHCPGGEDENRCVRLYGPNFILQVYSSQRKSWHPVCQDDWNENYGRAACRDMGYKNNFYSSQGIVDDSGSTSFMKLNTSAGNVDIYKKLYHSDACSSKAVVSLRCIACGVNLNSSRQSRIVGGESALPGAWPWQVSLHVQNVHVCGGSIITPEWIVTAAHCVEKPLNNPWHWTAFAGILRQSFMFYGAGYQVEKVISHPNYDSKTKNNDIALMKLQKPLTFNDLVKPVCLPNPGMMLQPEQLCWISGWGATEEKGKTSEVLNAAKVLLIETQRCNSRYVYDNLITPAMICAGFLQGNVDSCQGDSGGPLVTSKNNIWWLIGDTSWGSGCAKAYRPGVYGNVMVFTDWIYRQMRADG
# UniProt P48775, sequence (whole entry, looked up): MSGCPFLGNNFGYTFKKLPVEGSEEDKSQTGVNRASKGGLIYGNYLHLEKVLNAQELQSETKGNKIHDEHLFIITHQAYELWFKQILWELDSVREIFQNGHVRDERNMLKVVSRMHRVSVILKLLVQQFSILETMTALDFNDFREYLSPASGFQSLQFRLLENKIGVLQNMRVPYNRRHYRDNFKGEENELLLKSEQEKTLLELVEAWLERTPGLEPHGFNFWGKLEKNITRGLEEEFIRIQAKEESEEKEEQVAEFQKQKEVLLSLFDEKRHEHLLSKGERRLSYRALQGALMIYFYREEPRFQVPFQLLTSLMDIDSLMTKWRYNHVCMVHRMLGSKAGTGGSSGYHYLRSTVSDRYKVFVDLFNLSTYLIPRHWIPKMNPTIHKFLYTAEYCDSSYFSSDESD
# UniProt Q96JM7, sequence (whole entry, looked up): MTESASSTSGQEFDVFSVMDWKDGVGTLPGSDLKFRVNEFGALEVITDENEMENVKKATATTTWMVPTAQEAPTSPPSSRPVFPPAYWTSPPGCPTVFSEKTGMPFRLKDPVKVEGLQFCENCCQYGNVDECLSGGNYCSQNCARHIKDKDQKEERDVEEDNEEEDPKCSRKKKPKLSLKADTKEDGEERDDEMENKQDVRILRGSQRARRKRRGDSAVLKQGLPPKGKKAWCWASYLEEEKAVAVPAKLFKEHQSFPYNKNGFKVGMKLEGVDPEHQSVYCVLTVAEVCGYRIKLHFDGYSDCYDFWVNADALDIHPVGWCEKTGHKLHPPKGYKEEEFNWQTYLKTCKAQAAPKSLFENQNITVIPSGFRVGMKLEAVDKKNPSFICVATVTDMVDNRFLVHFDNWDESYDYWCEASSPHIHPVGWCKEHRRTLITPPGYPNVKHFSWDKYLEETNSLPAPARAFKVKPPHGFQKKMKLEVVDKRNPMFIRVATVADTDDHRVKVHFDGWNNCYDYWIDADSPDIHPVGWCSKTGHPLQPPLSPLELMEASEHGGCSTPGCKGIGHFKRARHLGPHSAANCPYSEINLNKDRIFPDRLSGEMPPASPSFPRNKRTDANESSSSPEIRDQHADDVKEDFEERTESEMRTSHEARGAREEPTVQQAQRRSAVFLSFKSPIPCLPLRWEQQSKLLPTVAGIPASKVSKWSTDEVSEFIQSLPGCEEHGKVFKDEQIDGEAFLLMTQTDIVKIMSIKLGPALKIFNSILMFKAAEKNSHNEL
# UniProt O08914, sequence (whole entry, looked up): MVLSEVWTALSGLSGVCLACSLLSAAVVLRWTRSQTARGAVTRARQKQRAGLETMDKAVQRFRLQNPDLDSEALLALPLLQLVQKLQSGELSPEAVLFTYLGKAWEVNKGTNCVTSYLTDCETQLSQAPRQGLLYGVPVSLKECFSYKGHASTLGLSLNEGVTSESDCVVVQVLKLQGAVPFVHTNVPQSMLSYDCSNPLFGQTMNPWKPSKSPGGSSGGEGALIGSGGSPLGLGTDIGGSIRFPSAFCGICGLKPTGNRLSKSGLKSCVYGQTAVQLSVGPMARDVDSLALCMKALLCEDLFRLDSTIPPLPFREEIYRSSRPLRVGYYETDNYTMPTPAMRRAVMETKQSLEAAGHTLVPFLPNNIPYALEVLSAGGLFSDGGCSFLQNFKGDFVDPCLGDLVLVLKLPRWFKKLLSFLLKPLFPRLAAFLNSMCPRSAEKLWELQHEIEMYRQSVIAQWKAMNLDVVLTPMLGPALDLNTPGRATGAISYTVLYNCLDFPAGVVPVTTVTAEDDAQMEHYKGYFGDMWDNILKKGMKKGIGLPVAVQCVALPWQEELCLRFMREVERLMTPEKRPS
# UniProt Q8VYV7, sequence (whole entry, looked up): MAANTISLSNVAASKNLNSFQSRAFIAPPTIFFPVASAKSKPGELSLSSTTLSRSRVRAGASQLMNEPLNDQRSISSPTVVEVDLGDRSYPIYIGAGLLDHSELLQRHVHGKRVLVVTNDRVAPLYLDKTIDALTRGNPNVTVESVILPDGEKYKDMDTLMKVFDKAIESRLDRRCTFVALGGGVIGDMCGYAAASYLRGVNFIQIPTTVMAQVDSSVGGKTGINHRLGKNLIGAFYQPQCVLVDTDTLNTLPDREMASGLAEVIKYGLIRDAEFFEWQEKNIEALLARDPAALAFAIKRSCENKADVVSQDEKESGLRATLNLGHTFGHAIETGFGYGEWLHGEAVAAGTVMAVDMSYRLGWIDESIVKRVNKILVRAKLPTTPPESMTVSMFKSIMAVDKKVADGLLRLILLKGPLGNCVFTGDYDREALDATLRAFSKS
# UniProt Q9NRG4, sequence (whole entry, unmodified, looked up): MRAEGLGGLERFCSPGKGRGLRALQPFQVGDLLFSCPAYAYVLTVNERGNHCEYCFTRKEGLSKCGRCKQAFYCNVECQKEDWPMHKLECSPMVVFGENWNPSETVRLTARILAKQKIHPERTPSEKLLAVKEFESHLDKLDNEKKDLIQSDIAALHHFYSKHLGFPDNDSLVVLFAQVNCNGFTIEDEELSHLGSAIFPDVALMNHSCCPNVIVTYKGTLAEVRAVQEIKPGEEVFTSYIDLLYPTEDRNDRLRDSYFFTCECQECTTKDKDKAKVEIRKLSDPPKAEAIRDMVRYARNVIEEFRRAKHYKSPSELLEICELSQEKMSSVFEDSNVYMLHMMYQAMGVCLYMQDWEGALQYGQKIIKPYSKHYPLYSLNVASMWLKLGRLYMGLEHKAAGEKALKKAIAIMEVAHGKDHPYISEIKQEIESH
# UniProt Q15661, sequence (whole entry, looked up): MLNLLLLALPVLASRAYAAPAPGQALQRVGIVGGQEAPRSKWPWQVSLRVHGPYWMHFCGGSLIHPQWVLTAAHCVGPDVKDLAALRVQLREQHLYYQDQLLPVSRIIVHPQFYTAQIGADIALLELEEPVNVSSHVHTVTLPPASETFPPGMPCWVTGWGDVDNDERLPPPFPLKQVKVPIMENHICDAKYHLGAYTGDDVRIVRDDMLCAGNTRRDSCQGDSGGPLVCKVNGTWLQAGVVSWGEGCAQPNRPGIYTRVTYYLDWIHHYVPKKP
# UniProt P28845, sequence (whole entry, looked up): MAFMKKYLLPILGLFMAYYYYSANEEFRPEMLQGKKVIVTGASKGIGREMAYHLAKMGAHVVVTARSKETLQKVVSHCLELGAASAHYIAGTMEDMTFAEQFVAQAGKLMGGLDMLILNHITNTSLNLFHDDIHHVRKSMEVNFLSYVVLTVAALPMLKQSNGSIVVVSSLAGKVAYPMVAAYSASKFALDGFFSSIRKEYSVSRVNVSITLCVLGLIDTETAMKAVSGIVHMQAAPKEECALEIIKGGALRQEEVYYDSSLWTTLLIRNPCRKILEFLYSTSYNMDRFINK
Compound,target,assay,system,setting,IC50
CNCc1c(OCc2ccc(F)cc2)ccc2ccccc12,"SLC6A4 (Homo sapiens, UniProt P31645)","transporter uptake, inhibitor, radiometric",,,5.03 µM
COc1ccc(C2CC(Br)=NO2)cc1 (racemic),"GSTP1 (Homo sapiens, UniProt P09211)","enzyme activity, inhibitor",,"together with: GSH and 1-bromo-2,4-dinitrobenzene",15 µM
O=C1C(Cl)=C(NCCN2CCOCC2)C(=O)c2ncccc21,"SMYD2 (Homo sapiens, UniProt Q9NRG4, G165E)","enzyme activity, inhibitor",,,0.5 µM
Oc1c(C(Nc2nccs2)c2cccc(OCc3ccccc3)c2)ccc2cccnc12 (stereo not drawn),"Genome polyprotein, NS2B-NS3 protease (GP1, West Nile virus, UniProt Q9Q6P4)","enzyme activity, inhibitor",,"0.1% CHAPS, together with: tetrapeptide substrate",3.46 ± 0.06 µM
C[C@@H](NC(=O)Cc1ccc(Cl)c(SC2C(=O)CC(c3c(Cl)cccc3Cl)CC2=O)c1)c1cccc2ccccc12 (stereo partly drawn),"LDHA (Homo sapiens, UniProt P00338)","enzyme activity, inhibitor",,,0.018 µM
COC(=O)[C@H]1C[C@H](OCCCl)[C@@H](O[C@H]2O[C@H](CO)[C@@H](O)[C@H](O)[C@@H]2n2cc(-c3cccnc3)nn2)C[C@@H]1C(=O)OC,"CD209 antigen (CD209, Homo sapiens, UniProt Q9NNX6)","cell-free assay, SPR",,,609 µM
O=C(C[S+]([O-])c1cccs1)C12CC3CC(CC(C3)C1)C2 (stereo not drawn),"HSD11B1 (Homo sapiens, UniProt P28845)","enzyme activity in cells, inhibitor",,,0.059 µM
C[C@]12CCC(=O)C=C1CCC1C2CC[C@]2(C)C(c3cccnc3)=CCC12 (stereo partly drawn),"Androgen receptor (AR, Homo sapiens, UniProt P10275, T878A)",binding,LNCaP,"mutant receptor, together with: [3H]-R1881 0.1 nM",0.0053 µM
Cc1sc(Nc2ccccc2)nc1C(=O)O,"TDO2 (Homo sapiens, UniProt P48775)",inhibitor,,together with: L-tryptophan 400 µM,> 500 µM
CC[C@H](C)[C@H](NC(C)=O)C(=O)N[C@H](CC(=O)N[C@H](C(=O)N[C@@H](C)C(=O)N[C@@H](CCC(N)=O)C(=O)N[C@@H](CCC(=O)O)CC(=O)N[C@@H](CC(C)C)C(=O)N[C@@H](CCCNC(=N)N)C(=O)N[C@@H](CCCNC(=N)N)CC(=O)N[C@H](C(=O)NCC(=O)N[C@@H](CC(=O)O)C(=O)N[C@@H](CCC(=O)O)CC(=O)N[C@@H](Cc1ccccc1)C(=O)N[C@@H](CC(N)=O)C(=O)N[C@@H](C)CC(=O)N[C@@H](Cc1ccc(O)cc1)C(=O)N[C@@H](Cc1ccc(O)cc1)C(N)=O)[C@@H](C)CC)[C@@H](C)CC)Cc1c[nH]c2ccccc12,BCL2L1,competition SPR,,"pH 7.4, together with: BimBH3 peptide",1.01 ± 0.025 µM
O=[N+]([O-])c1ccc(/N=N/c2ccc(O)c(O)c2)cc1,"Semaphorin-3C, with neuropilin-1 (SEMA3C, Homo sapiens, UniProt Q99985)","SEMA3C binding, inhibitor, displacement",,together with: SEMA3C-AP,5.9 µM
O=C(Nc1ccc(C(F)(F)F)nc1)N1CCC(Cc2cccc(Oc3ccc(C(F)(F)F)cn3)c2)CC1,"Faah (Mus musculus, UniProt O08914)","enzyme activity, inhibitor, fluorescence",mouse tissue homogenate,5 min preincubation,0.56 µM
N[C@@H](CC#CCN1CCCCCC1)C(=O)O,collagenase,"gelatin hydrolysis, inhibitor",,,1220 µM
O=c1[nH]c(=O)c2ncn(CCOCP(=O)(O)OP(=O)(O)OP(=O)(O)O)c2[nH]1,"DNA polymerase catalytic subunit (Human cytomegalovirus, UniProt P08546)","DNA polymerase activity, inhibitor",,"together with: [3H]dTTP, calf thymus DNA",> 100 µM
CC(C)c1c(-c2cccc3[nH]ccc23)[nH]c(C(=O)O)c1-c1c(Cl)ccc2[nH]ccc12,"E3 ubiquitin-protein ligase RING2, with BMI1 (RNF2, Homo sapiens, UniProt Q99496)",H2A ubiquitination,,,1.6 µM
O=C(O)CCOCCOCCOCCOCCOCc1cn([C@H]2[C@@H](O)[C@@H](CO)O[C@@H](S[C@@H]3O[C@H](CO)[C@H](O)[C@H](n4cc(-c5ccccc5)nn4)[C@H]3O)[C@@H]2O)nn1,"Galectin-3 (LGALS3, Homo sapiens, UniProt P17931)","binding to asialofetuin, inhibitor, ELISA",,LGALS3 5.56 µM,9.03 ± 0.027 µM
CCCC(CCC)C(=O)NO,HDAC (Lucilia cuprina egg nuclear extract),"enzyme activity, inhibitor, fluorometric",,,> 100 µM
NC(c1ccccc1)(c1ccccc1)c1ccccc1,Gja8,"gap junction current, inhibitor, dual whole-cell voltage clamp",transfected mouse N2a cell pairs,,1.5 µM
O=c1c(OCc2ccccc2)c(-c2cccs2)oc2ccccc12,β-glucosidase,"enzyme activity, inhibitor",,,0.42 ± 0.08 µM
COc1ccc2c3c(c(Cc4ccc(Br)cc4)[nH]c13)CCNC2=O,PDE5A,"enzyme activity, inhibitor",,,0.055 µM
C[C@H](NC(=O)[C@H](CC(=O)NCC(C)(C)C)NC(=O)C(=O)c1c[nH]c2ccccc12)C(=O)NCc1ccc(F)cc1F,"Proteasome subunit beta type-10 / Proteasome subunit beta type-3 (Homo sapiens, UniProt P40306+P49720)",inhibitor,,,> 100 µM
NCc1cccc(C2CCN(C(=O)c3cccc(OCC(=O)C4(O)CCC4)c3)CC2)c1,"Tryptase beta-1 (Homo sapiens, UniProt Q15661)","enzyme activity, inhibitor",,"tryptase 100 pM, together with: AMC substrate",0.103 µM
COc1cc2nccc(Oc3ccc(NC(=S)NC4CC4)c(C(F)(F)F)c3)c2cc1C(N)=O,FGFR1,,,,0.242 µM
CN(C)C/C=C/C(=O)Nc1ccc2nc(NCCCCCN(C)C)nc(NCCCCCCN(C)C)c2c1,"Chromodomain Y-like protein 2, chromodomain (CDYL2, Homo sapiens, UniProt Q8N8U2)","methyl-lysine binding, TR-FRET",,,> 100 µM
COc1cc2nccc(Oc3ccc(NC(=S)NC4CC4)c(Cl)c3)c2cc1C(=O)N1CCCCC1,FGFR1,,,,> 10 µM
CCOC(=O)c1ccc(/N=c2\oc3ccccc3cc2-c2ccccc2)cc1,"PTGS2 (Homo sapiens, UniProt P35354)","enzyme activity, inhibitor",,,0.01 µM
CC(C)(C)c1ccc(O)c(C(=O)Nc2ccc(CN)cc2)c1,"TMPRSS2 (Homo sapiens, UniProt O15393)","enzyme activity, inhibitor, fluorescence",,with preincubation,13 µM and 13.1 µM
NCCCCCO[C@H]1O[C@H](COS(=O)(=O)O)[C@@H](O[C@@H]2O[C@@H](C(=O)O)[C@@H](O[C@H]3O[C@H](COS(=O)(=O)O)[C@@H](O[C@@H]4O[C@@H](C(=O)O)[C@@H](O[C@H]5O[C@H](COS(=O)(=O)O)[C@@H](O[C@@H]6O[C@@H](C(=O)O)[C@@H](O[C@H]7O[C@H](COS(=O)(=O)O)[C@@H](O[C@@H]8O[C@@H](C(=O)O)[C@@H](O)[C@H](O)[C@H]8OS(=O)(=O)O)[C@H](O)[C@H]7NS(=O)(=O)O)[C@H](O)[C@H]6OS(=O)(=O)O)[C@H](O)[C@H]5NS(=O)(=O)O)[C@H](O)[C@H]4OS(=O)(=O)O)[C@H](O)[C@H]3NS(=O)(=O)O)[C@H](O)[C@H]2OS(=O)(=O)O)[C@H](O)[C@H]1NS(=O)(=O)O,"Heparanase (HPSE, Homo sapiens, UniProt Q9Y251)","enzyme activity, inhibitor, TR-FRET",,,1.1 µM
CC(C)(C)NCCCNC(=O)c1ccnc(C(F)(F)F)c1,"Lethal(3)malignant brain tumor-like protein 3 (Homo sapiens, UniProt Q96JM7)","methyl-lysine reader binding, inhibitor, AlphaScreen",,,> 100 µM
CN(CC(=O)c1ccc2[nH]c(=O)[nH]c2c1)Cc1ccco1,"Single-stranded DNA cytosine deaminase (AICDA, Homo sapiens, UniProt Q9GZX7)","deaminase activity, inhibitor, alkaline cleavage","293T lysate, untagged","pH 7.2, 37 °C",11 µM
COc1cc2nccc(Oc3ccc(NC(=S)N(C)C)c(Cl)c3)c2cc1C(N)=O,FGFR1,,,,0.063 µM
CN(C)CC[C@H](CSc1ccccc1)Nc1ccc(S(=O)(=O)NC(=O)c2ccc3c(c2)CC[C@@H]2CN(Cc4ccccc4-c4ccc(Cl)cc4)CCN32)cc1[N+](=O)[O-],BCL2L1,"ligand displacement, FP",,,0.14 µM
COc1ccc2c3c(c(Cc4ccc(Cl)cc4)[nH]c13)CCN(CCN(C)C)C2=O,PDE5A,"enzyme activity, inhibitor",,,0.03 µM
O=C(O)[C@]1(O)C[C@H](CP(=O)(O)O)[C@@H](O)[C@H](O)C1,"3-dehydroquinate synthase, chloroplastic (DHQS, Arabidopsis thaliana, UniProt Q8VYV7)","enzyme activity, inhibitor, malachite green phosphate release",,29 °C,0.0005 µM
COc1cc2nccc(Oc3ccc(NC(=S)N[C@H](C)CO)c(Cl)c3)c2cc1C(N)=O,FGFR1,,,,0.416 µM
CCCN(CC(=O)N(CCC)CC(=O)N(CCC)CC(=O)N(CCC)CC(=O)N(CC(N)=O)Cc1cn(CCCNC(=O)CCCOc2cccc(-c3nc4ccc(-c5nc6ccc(N7CCN(C)CC7)cc6[nH]5)cc4[nH]3)c2)nn1)C(=O)CNCc1cn(CCCNC(=O)CCCOc2cccc(-c3nc4ccc(-c5nc6ccc(N7CCN(C)CC7)cc6[nH]5)cc4[nH]3)c2)nn1,MBNL1–r(CUG)109 complex,MBNL1 displacement,,together with: bulk yeast tRNA competitor,11 ± 2 µM
CNC(=O)[C@@H]1Cc2c([nH]c3ccccc23)[C@@H](c2ccc(C)cc2Cl)N1,"MEP cytidylyltransferase IspD (Plasmodium falciparum, UniProt Q8I273)","enzyme activity, inhibitor, fluorimetric pyrophosphate",,60 nM enzyme,0.36 ± 0.04 µM
OC(c1ccccc1)(c1ccccc1)c1ccccc1C(F)(F)F,Gja8,"gap junction current, inhibitor, dual whole-cell voltage clamp",transfected mouse N2a cell pairs,,3 µM
COc1cc(/C=C/c2cc(/C=C/c3ccc(O)c(OC)c3)[nH]n2)ccc1O,"Sterol carrier protein 2 (Helicoverpa armigera, UniProt K7NSY9)","displacement of 1,8-ANS, fluorescence",,"pH 7.0, 25 °C, together with: 1,8-ANS 15 µM",26.2 µM

# For quick reference, copied from above:
Compound,target,assay,system,setting,IC50
COC(=O)[C@H]1C[C@H](OCCCl)[C@@H](O[C@H]2O[C@H](CO)[C@@H](O)[C@H](O)[C@@H]2n2cc(-c3cccnc3)nn2)C[C@@H]1C(=O)OC,"CD209 antigen (CD209, Homo sapiens, UniProt Q9NNX6)","cell-free assay, SPR",,,609 µM
NCc1cccc(C2CCN(C(=O)c3cccc(OCC(=O)C4(O)CCC4)c3)CC2)c1,"Tryptase beta-1 (Homo sapiens, UniProt Q15661)","enzyme activity, inhibitor",,"tryptase 100 pM, together with: AMC substrate",0.103 µM
COc1cc2nccc(Oc3ccc(NC(=S)N(C)C)c(Cl)c3)c2cc1C(N)=O,FGFR1,,,,0.063 µM
COc1ccc(C2CC(Br)=NO2)cc1 (racemic),"GSTP1 (Homo sapiens, UniProt P09211)","enzyme activity, inhibitor",,"together with: GSH and 1-bromo-2,4-dinitrobenzene",15 µM
